Results collected from several papers.
Compare with care: the assays were run in different laboratories. Numbers after ± are the reported error.
csn2 full length assumed: csn2 full length assumed (Streptococcus agalactiae, UniProt E7S4M0)

| Molecule | tested on | test | system | setting | scale | endpoint | result |
| --- | --- | --- | --- | --- | --- | --- | --- |
| CCc1nnc(-c2c(OC)cc(-c3cnc4cc(-c5cnn(C)c5)ccn34)cc2OC)o1 | – | RT-qPCR, item: Spp1 | male C57BL/6J mice, cortical bone | oral gavage, dose not given, 3 weeks | – | mRNA level | increased |
| O=C(O)/C=C/c1cc(O)cc(O)c1 | – | – | – | 1000 µg/mL | – | ABTS radical scavenging | 84.1 ± 2.11% |
| CC[C@H](C)[C@H](NC(=O)[C@H](CCCNC(=N)N)NC(=O)[C@H](CCCNC(=N)N)NC(=O)[C@H](CC(C)C)NC(=O)[C@H](Cc1ccccc1)NC(=O)CNC(=O)CNC(=O)[C@@H](N)Cc1ccc(O)cc1)C(=O)N[C@@H](CCCNC(=N)N)C(=O)N1CCC[C@H]1C(=O)N[C@@H](CCCCN)C(=O)N[C@@H](CC(C)C)C(=O)N[C@@H](CCCCN)C(=O)N[C@@H](Cc1c[nH]c2ccccc12)C(=O)N[C@@H](CC(=O)O)C(=O)N[C@@H](CC(N)=O)C(=O)N[C@@H](CCC(N)=O)C(=O)O | – | – | C57BL/6 mouse striatal membranes | concentration not given | relative to: basal | stimulation | 3.1 ± 0.1 fold |
| COc1ccc2c(c1)C(C)(C)C(/C=C/C1=C(Oc3ccc(C(=O)NCCCCOc4cc(CN(Cc5ccccn5)Cc5ccccn5)cc(CN(Cc5ccccn5)Cc5ccccn5)c4)cc3)C(=C/C=C3/N(CCCCS(=O)(=O)[O-])c4ccc(OC)cc4C3(C)C)CCC1)=[N+]2CCCCS(=O)(=O)[O-].O=[N+]([O-])O.O=[N+]([O-])[O-].O=[N+]([O-])[O-].O=[N+]([O-])[O-].[Zn+2].[Zn+2] | – | photoacoustic imaging | BALB/c mouse S. aureus myositis, infected muscle | intravenous, dose not given, 12 h | relative to: infected over vehicle control muscle | target-to-non-target ratio | 2.4 ± 0.49 |
| GATTACTAAAGCTCAAAAGAAAATTTTCTACGAGGTTTTAGAGCTGTGCTGTTTCGAATGGTTCCAAAAC (ssDNA) | csn2 full length assumed | EMSA | single-stranded DNA | – | – | binding | no binding |
| CS(C)(=O)=Nc1ccc(-c2ccc(-c3nc4cc(O[C@@H]5CO[C@H]6[C@@H]5OC[C@H]6O)[nH]c4cc3F)cc2)cc1 | – | indirect calorimetry | wild-type mouse | 10 mg/kg | – | change in respiratory quotient | decreased |
| CCN(CCCCOc1ccc(CCC(=O)N2CCC(Cc3ccccc3)CC2)cc1OC)Cc1ccccc1 | – | step-down passive avoidance | scopolamine-induced amnesic mice | 13.0 mg/kg | – | step-down latency | 170 s |
| CCCCCCCOP(=O)(O)Oc1c2c(c(OP(=O)(O)OCCCCCCC)c3c1C1CC3c3cc4c(cc31)C1CC4c3ccccc31)C1CC2c2cc3c(cc21)C1CC3c2ccccc21 | – | liposome dye leakage | liposomes 200 nm | 30 min, added: carboxyfluorescein 50 mM | – | EC50 | 4.4 µM |
| Cc1ccc(/C=C/C(=O)O)cc1-c1cc2c(cc1C)C(C)(C)CCC2(C)C | – | RNA sequencing, item: Nmb | rat, brain | dose not given, 24 h | relative to: vehicle | log2 fold change | 0.33 |
| ATGATCAGTACGATGTTCACTGTACTCTGACTCGCCTGACATGACTGACGGACTTGCACT (dsDNA; hemimethylated N6-methyladenine) | ccrMIM 1-358 G305A (Caulobacter vibrioides, UniProt P0CAW2) | EMSA | double-stranded DNA, one strand shown | added: sinefungin 60 µM | – | binding | binds |
| N=C(N)NCCC[C@H](NC(=O)[C@H](CCCNC(=N)N)NC(=O)[C@H](CCCNC(=N)N)NC(=O)[C@H](CCC(N)=O)NC(=O)[C@H](CCCNC(=N)N)NC(=O)[C@H](CCCNC(=N)N)NC(=O)[C@H](CCCCN)NC(=O)[C@H](CCCCN)NC(=O)[C@H](CCCNC(=N)N)NC(=O)[C@H](Cc1c[nH]c2ccccc12)NC(=O)[C@H](Cc1c[nH]c2ccccc12)NC(=O)[C@@H](N)CSSC[C@H](N)C(=O)N[C@@H](Cc1c[nH]c2ccccc12)C(=O)N[C@@H](Cc1c[nH]c2ccccc12)C(=O)N[C@@H](CCCNC(=N)N)C(=O)N[C@@H](CCCCN)C(=O)N[C@@H](CCCCN)C(=O)N[C@@H](CCCNC(=N)N)C(=O)N[C@@H](CCCNC(=N)N)C(=O)N[C@@H](CCC(N)=O)C(=O)N[C@@H](CCCNC(=N)N)C(=O)N[C@@H](CCCNC(=N)N)C(=O)N[C@@H](CCCNC(=N)N)C(=O)NCC(N)=O)C(=O)NCC(N)=O | – | – | ROSA26-LSL-tdTomato mice, sensorimotor cortex | intracortical, 200 µM, region 2, added: TAT-Cre 40 µM | – | tdTomato-positive microglia | < 5% |
| O=C(O)/C=C/c1ccc(O)cc1 | – | – | – | 500 µg/mL | – | ABTS radical scavenging | 75.5 ± 1.2% |
| O=c1c(O)c(-c2cc(O)ccc2O)oc2cc(O)cc(O)c12 | – | – | – | 62.5 µg/mL | – | ABTS radical scavenging | 49.7 ± 1.06% |
| GTTTTAGAGCTGTGCTGTTTCGAATGGTTCCAAAAC (dsDNA duplex) | csn2 full length assumed | EMSA | double-stranded DNA, one strand shown | – | – | binding | binds |
| somatostatin | – | – | Sprague-Dawley rat, streptozotocin-induced diabetes, retina | eye drops, 10 mg/mL, score 0 | – | GFAP-positive glial activation | 50% |
| CC1=C(C(=O)Nc2ccc(F)cc2)C(c2ccccc2Br)NC(=S)N1 (stereo not drawn) | – | carotid artery cannulation | male Wistar rats, anaesthetised | 0.3 mL, 3 h | – | mean arterial pressure | 23.1 ± 0.87 mm Hg |
| CC(C)C[C@H](NC(=O)CNC(=O)[C@H](CO)NC(=O)[C@@H](NC(=O)[C@@H](N)CCC(=O)O)C(C)C)C(=O)N[C@@H](CCC(=O)O)C(=O)N[C@@H](CCC(N)=O)C(=O)N[C@@H](CC(C)C)C(=O)N[C@@H](CCC(=O)O)C(=O)O | – | Griess | RAW264.7, mouse | 1000 µg/mL, 24 h, added: heat-killed Cutibacterium acnes 100 µg/mL | relative to: no peptide control | NO production | 50.9% |
| CC[C@H](C)[C@H](NC(=O)[C@H](CCCNC(=N)N)NC(=O)[C@H](CCC(N)=O)NC(=O)[C@H](CC(=O)O)NC(=O)[C@H](CC(C)C)NC(=O)[C@H](CC(C)C)NC(=O)[C@H](CC(N)=O)NC(=O)[C@H](Cc1ccccc1)NC(=O)[C@H](CC(=O)O)NC(=O)[C@@H](NC(=O)[C@@H](NC(=O)[C@H](CC(N)=O)NC(=O)CNC(=O)[C@H](CO)NC(C)=O)C(C)C)[C@@H](C)CC)C(=O)N[C@H](C(=O)N[C@@H](Cc1c[nH]c2ccccc12)C(=O)N[C@@H](CCC(N)=O)C(=O)N[C@@H](CC(N)=O)C(=O)N[C@@H](Cc1c[nH]c2ccccc12)C(=O)N[C@@H](Cc1ccc(O)cc1)C(=O)N[C@@H](C)C(N)=O)[C@@H](C)CC | – | item: HA-52 tetramer | tetramer+ CD4 T cells, PBMC, healthy adults, HLA-DRB1*0101 | dose not given, CD62L−CD45RA+/− or CD62L+CD45RA− | – | antigen-experienced T cells | 17% |
| CCN(Cc1ccccc1)C(=O)CCc1nc(CN2CCN(C(=O)Cc3ccc(OC)c(OC)c3)CC2)no1 | – | current clamp | L4-L6 DRG neurons, rat CCI model | 3 µM | – | rheobase | 400 ± 42.3 pA |
| CC[C@H](C)[C@H](NC(=O)[C@@H](NC(=O)[C@H](CC(=O)O)NC(C)=O)[C@@H](C)O)C(=O)N[C@@H](CCCNC(=N)N)C(=O)N[C@@H](CC(C)C)C(=O)N[C@@H](CC(C)C)C(=O)N[C@@H](Cc1ccccc1)C(=O)N[C@@H](CCC(N)=O)C(=O)N[C@@H](CC(C)C)C(=O)N[C@@H](CCSC)C(=O)N[C@@H](CCCNC(=N)N)C(=O)N1CCC[C@H]1C(=O)N1CCC[C@H]1C(=O)N[C@@H](CC(N)=O)C(=O)N[C@@H](CCSC)C(=O)N[C@H](C(=O)N1CCC[C@H]1C(=O)N[C@@H](C)C(=O)N[C@H](C(=O)N[C@@H](CC(N)=O)C(=O)N[C@@H](C)C(N)=O)C(C)C)[C@@H](C)O | – | – | PBMC CD4 T cells, HLA-DR1 vaccinated children | dose not given | – | antigen-experienced tetramer+ cells | 40 to 71% |
| COc1ccc([N+](=O)[O-])cc1NC(=O)CCC(=O)[O][Zn][O]C(=O)CCC(=O)Nc1cc([N+](=O)[O-])ccc1OC.c1ccncc1 | – | ABTS | – | 62.5 µg/mL | – | ABTS radical scavenging | 65.24 ± 0.38% |
| ATGATCAGTACGATGTTCACTGTACTCTGACTCGCCTGACATGACTGACGGACTTGCACT (ssDNA) | ccrMIM 1-358 H317A (Caulobacter vibrioides, UniProt P0CAW2) | EMSA | single-stranded DNA | added: sinefungin 60 µM | – | Kd | 0.101 ± 0.0321 µM |
| CSCCNC(=O)CCC(C)C1CCC2C3C(O)CC4CC(O)CCC4(C)C3CCC12C (stereo not drawn) | – | item: Cyp7a1 | SPF mice, liver | oral gavage, 50 mg/kg daily | relative to: corn oil | mRNA level | increased |
| O=C(O)CCCC(=O)O | – | – | – | 125 µg/mL | – | ABTS radical scavenging | 55.1 ± 2.51% |
| ATTTAAGATATCTTAAAT (dsDNA) | repressor C2 1-216 E44A (Salmonella phage P22, UniProt P69202) | filter binding | double-stranded DNA, one strand shown | – | – | binding | binds |
| CC(C)C[C@H](NC(=O)[C@@H](N)CCCNC(=N)N)C(=O)N[C@@H](CCCNC(=N)N)C(=O)N[C@@H](Cc1c[nH]c2ccccc12)C(=O)N1CCC[C@H]1C(=O)N[C@@H](CCCNC(=N)N)C(=O)N1CCC[C@H]1C(=O)N[C@@H](CCCNC(=N)N)C(=O)N[C@@H](Cc1c[nH]c2ccccc12)C(=O)N[C@@H](CCCNC(=N)N)C(=O)N[C@@H](CCCCN)C(=O)N1CCC[C@H]1C(=O)N1CCC[C@H]1C(=O)O | – | ABTS | – | 1 mg/mL | – | ABTS radical scavenging | 62% |
| C#CCCCOP(=O)(O)Oc1c2c(c(OP(=O)(O)OCCCC#C)c3c1C1CC3c3cc4c(cc31)C1CC4c3ccccc31)C1CC2c2cc3c(cc21)C1CC3c2ccccc21 | – | liposome dye leakage | liposomes 200 nm | 30 min, added: carboxyfluorescein 50 mM | – | EC50 | 43.4 µM |
| COC[C@@H](NC(C)=O)C(=O)NCc1ccc(OCc2cccc(Cl)c2)cc1 | – | 6 Hz seizures | mouse | intraperitoneal | – | ED50 | 13 mg/kg |
| O=P(O)(OCc1ccc(-c2ccccc2)cc1)Oc1c2c(c(OP(=O)(O)OCc3ccc(-c4ccccc4)cc3)c3c1C1CC3c3cc4c(cc31)C1CC4c3ccccc31)C1CC2c2cc3c(cc21)C1CC3c2ccccc21 | – | liposome dye leakage | liposomes 200 nm | 30 min, added: carboxyfluorescein 50 mM | – | EC50 | 14.1 µM |
| dmaW (Aspergillus fumigatus, UniProt Q50EL0) | C=C/C=C(\C)COP(=O)(O)OP(=O)(O)O | steady-state kinetics | – | pH 7.5, 35 °C | – | kcat/Km | 267 ± 33.3 M⁻¹ s⁻¹ |

Repeated from above:
| Molecule | tested on | test | system | setting | scale | endpoint | result |
| --- | --- | --- | --- | --- | --- | --- | --- |
| CC1=C(C(=O)Nc2ccc(F)cc2)C(c2ccccc2Br)NC(=S)N1 (stereo not drawn) | – | carotid artery cannulation | male Wistar rats, anaesthetised | 0.3 mL, 3 h | – | mean arterial pressure | 23.1 ± 0.87 mm Hg |
| CC(C)C[C@H](NC(=O)CNC(=O)[C@H](CO)NC(=O)[C@@H](NC(=O)[C@@H](N)CCC(=O)O)C(C)C)C(=O)N[C@@H](CCC(=O)O)C(=O)N[C@@H](CCC(N)=O)C(=O)N[C@@H](CC(C)C)C(=O)N[C@@H](CCC(=O)O)C(=O)O | – | Griess | RAW264.7, mouse | 1000 µg/mL, 24 h, added: heat-killed Cutibacterium acnes 100 µg/mL | relative to: no peptide control | NO production | 50.9% |
